{"data": "Results gathered from unrelated publications", "note": "Each numbered part is a random draw from the data of one study; scales do not carry over between parts. Substitutions count along the parent as printed."}
{"data": "Sample 1", "target": "CCND1, cyclin fold, Cln2 fusion (human)", "technique": "yeast growth competition, sequencing", "matrix": "yeast", "notes": "strong parent motif", "relative to": "not given", "reading": "higher = stronger binding", "starting sequence": "E2F1 docking peptide (human); PPVKRRLDFETDH"}
{"Change": "V3K", "normalised enrichment score": 0.0546}
{"Change": "R6F", "normalised enrichment score": 1.33}
{"Change": "D8M", "normalised enrichment score": 1.76}
{"Change": "L7Q", "normalised enrichment score": 0.0661}
{"Change": "D12E", "normalised enrichment score": 3.16}
{"Change": "K4F", "normalised enrichment score": 1.28}
{"Change": "L7K", "normalised enrichment score": 0.149}
{"Change": "D12N", "normalised enrichment score": 2.83}
{"Change": "R6S", "normalised enrichment score": 1.13}
{"Change": "D8P", "normalised enrichment score": 0.219}
{"Change": "P2R", "normalised enrichment score": 1.9}
{"Change": "E10A", "normalised enrichment score": 2.44}
{"Change": "R5L", "normalised enrichment score": 0.976}
{"Change": "R6P", "normalised enrichment score": 0.391}
{"Change": "L7E", "normalised enrichment score": 0.188}
{"Change": "K4R", "normalised enrichment score": 3.96}
{"Change": "E10P", "normalised enrichment score": 1.37}
{"Change": "P2K", "normalised enrichment score": 2.14}
{"Change": "K4N", "normalised enrichment score": 2.42}
{"Change": "F9D", "normalised enrichment score": -0.18}
{"Change": "D12P", "normalised enrichment score": 3.44}
{"Change": "P2F", "normalised enrichment score": 0.757}
{"Change": "V3L", "normalised enrichment score": 0.917}
{"Change": "D12Y", "normalised enrichment score": 3.13}
{"Change": "L7V", "normalised enrichment score": 0.0357}
{"data": "Sample 2", "target": "Histone acetyltransferase KAT6A, winged helix 1, GST fusion (KAT6A, Homo sapiens, UniProt Q92794, residues 1-85)", "technique": "protein binding microarray", "molecule type": "double-stranded DNA, one strand shown", "matrix": "in vitro", "concentration": "not given", "notes": "8-mer, flanks averaged, mean of 2 arrays, mostly near background", "relative to": "not given", "reading": "higher = stronger binding", "Target sequence (chain)": "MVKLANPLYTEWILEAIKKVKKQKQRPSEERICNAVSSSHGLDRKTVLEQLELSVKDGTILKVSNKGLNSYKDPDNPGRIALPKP"}
{"Strand": "AACGTGGA", "E-score": -0.123}
{"Strand": "GACTGGGA", "E-score": -0.123}
{"Strand": "GGGCCACA", "E-score": -0.0752}
{"Strand": "AGATGAAA", "E-score": -0.193}
{"Strand": "GACCTTCA", "E-score": -0.01}
{"Strand": "GCCAAGTA", "E-score": -0.153}
{"Strand": "CTAGCCCC", "E-score": -0.0496}
{"Strand": "GTCTGCAC", "E-score": -0.022}
{"Strand": "CGGGTACG", "E-score": 0.343}
{"Strand": "GTAGTGAC", "E-score": 0.0353}
{"Strand": "GTAACTAA", "E-score": 0.0801}
{"Strand": "ATGGGCGG", "E-score": 0.157}
{"Strand": "AAGCTGCA", "E-score": -0.0027}
{"Strand": "AGAGGCAT", "E-score": -0.109}
{"Strand": "ACTGGAAA", "E-score": -0.145}
{"Strand": "ATCCGCAA", "E-score": 0.0643}
{"Strand": "CGTCCGCC", "E-score": 0.4}
{"Strand": "GAGTAGAA", "E-score": -0.0681}
{"Strand": "ATACCTGG", "E-score": -0.13}
{"Strand": "AGGAAACA", "E-score": -0.135}
{"Strand": "ATCCTTCG", "E-score": -0.117}
{"Strand": "GACGGGAA", "E-score": 0.327}
{"Strand": "CGAACGTC", "E-score": -0.000195}
{"Strand": "TTATTGAA", "E-score": -0.338}
{"Strand": "AGATCATC", "E-score": -0.239}
{"data": "Sample 3", "target": "Ras GTPase-activating protein-binding protein 1, RRM domain (G3BP1, Homo sapiens, UniProt Q13283)", "technique": "RNA Bind-n-Seq", "molecule type": "RNA", "matrix": "in vitro", "concentration": "1 µM", "notes": "whole 134-nt RNA, ends assumed", "together with": "150 mM KCl", "relative to": "input library", "reading": "higher = stronger binding", "all sequences stand within": "GGGAGUUCUACAGUCCGACGAUC … UGGAAUUCUCGGGUGUCAAGG", "UniProt Q13283, sequence (whole entry, looked up)": "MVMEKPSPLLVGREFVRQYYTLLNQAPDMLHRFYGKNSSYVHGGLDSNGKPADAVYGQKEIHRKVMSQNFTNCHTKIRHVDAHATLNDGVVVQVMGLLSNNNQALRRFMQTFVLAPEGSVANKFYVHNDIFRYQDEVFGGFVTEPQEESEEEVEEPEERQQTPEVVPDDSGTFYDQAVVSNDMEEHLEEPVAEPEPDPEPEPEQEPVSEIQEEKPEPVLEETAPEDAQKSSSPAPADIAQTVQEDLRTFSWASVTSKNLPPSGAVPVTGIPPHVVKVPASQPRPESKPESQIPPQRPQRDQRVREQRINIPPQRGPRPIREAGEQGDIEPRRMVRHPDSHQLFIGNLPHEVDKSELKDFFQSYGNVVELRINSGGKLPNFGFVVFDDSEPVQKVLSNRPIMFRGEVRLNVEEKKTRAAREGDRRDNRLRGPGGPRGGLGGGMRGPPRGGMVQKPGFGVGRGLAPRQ"}
{"Strand": "AGUCCUGUGCUACACAUCGUAUGUACCGAAUCGGGUUUUUGGGUUUGGGAAAAAGGGAAAGUAUUAUGUUACGCCGUUCGGAUCUGCACU", "log2 enrichment": 0.209}
{"Strand": "UAACUUAAGAGGAGGAUCUGAUGGAUAUGGCAGUGGACGUGGAUUUGGGGAUGGCUAUAAUGGGUAUGGAGGAGGACCUGGAGGUGGCAA", "log2 enrichment": -0.732}
{"Strand": "UCAAGUCCUGUGCUACACAUCGUAUGUACCGAAUCGGCCCGGCCCGGGGCCCGGAAAGUAUUAUGUUACGCCGUUCGGAUCUGCACUUCC", "log2 enrichment": -0.524}
{"Strand": "CUGUGCUACACAUCGUAUGUACCGAAUCGGGGUUUUUGGGGUUUUUGGGGUUUUUUUGGGGAAAGUAUUAUGUUACGCCGUUCGGAUCUG", "log2 enrichment": 1.01}
{"Strand": "AAGUCCUGUGCUACACAUCGUAUGUACCGAAUCGGUUUUUUUGGUGGAAAAAAAGGAAAGUAUUAUGUUACGCCGUUCGGAUCUGCACUU", "log2 enrichment": -0.202}
{"Strand": "CCUGUGCUACACAUCGUAUGUACCGAAUCGGGUUUUUUUGGGAAAAAGGGAAAAAAAGGGAAAGUAUUAUGUUACGCCGUUCGGAUCUGC", "log2 enrichment": -0.224}
{"Strand": "CAAGUCCUGUGCUACACAUCGUAUGUACCGAAUCGGGGCCCGGGCCCGGGGCCCGGAAAGUAUUAUGUUACGCCGUUCGGAUCUGCACUU", "log2 enrichment": -1.07}
{"Strand": "UCCUGUGCUACACAUCGUAUGUACCGAAUCGGGGUUUUUGGGGUGGGGUUUUUUUGGGGAAAGUAUUAUGUUACGCCGUUCGGAUCUGCA", "log2 enrichment": 0.72}
{"Strand": "CUGUGCUACACAUCGUAUGUACCGAAUCGGGGUUUUUUUGGGUUUUUUUGGGUUUUUUUGGGAAAGUAUUAUGUUACGCCGUUCGGAUCU", "log2 enrichment": -0.24}
{"Strand": "ACCAUGCAGGUGGGCAUCUUUGGGAAGUGGGGCAAGGGGGGGAUAGGGAGGGGGGUAACACUUUGGGAACAGGUGGUCCCAGUUCGUUUC", "log2 enrichment": 0.63}
{"Strand": "ACCAUGCAGGUGGGCAUCUUUGGGAAGUGGGGCAAGGGGGGGAUAGGGAGGGGGGUAACACUUUGGGAACAGGUGGUCCCAGGUCGUUUC", "log2 enrichment": -0.574}
{"Strand": "UUCUCUCAUUUCUUCUGAAAUACAGGGCAAAUUGGAUCAAGGCAGUUCAGAUGUGUAGCAAACCCAGAGAAUUUGCAUUGGCUUUAGCCA", "log2 enrichment": 1.14}
{"Strand": "UAACUUUAGGGGAGGAUCUGAUGGAUAUGGCAGUGGACGUGGAUUUGGGGAUGGCUAUAAUGGGUAUGGAGGAGGACCUGGAGGUGGCAA", "log2 enrichment": -0.818}
{"Strand": "UGGGAGGUGGAUUUCGUUUAUUUUUUUAGCUCAUUUCCAGGGGUGGGAAUUUUUUUUUAAUAUGUGUCAUGAAUAAAGUUGUUUUUGAAA", "log2 enrichment": 1.52}
{"data": "Sample 4", "target": "Interferon regulatory factor 5, full length, phosphomimetic (IRF5, Homo sapiens, UniProt Q13568-2, residues 1-514, S451D/S453D/S456D/S462D)", "technique": "protein-binding microarray", "molecule type": "double-stranded DNA, one strand shown", "matrix": "in vitro", "concentration": "940 nM top", "notes": "60-bp whole probe", "together with": "salmon DNA 0.4 mg/ml", "relative to": "random background probes", "reading": "higher = stronger binding", "all sequences stand within": "GCCTAGCAC … GTCTTGATTCGCTTGACGCTGCTG"}
{"Strand": "GACGGACCGGGTATCGGGACGTGCTAG", "fitted relative affinity": "0.449 z-score"}
{"Strand": "AACGGTTTCCTTTTCCTGACGTGCTAG", "fitted relative affinity": "2.02 z-score"}
{"Strand": "GACGAACTGGGGTATCGCGACGTGCTA", "fitted relative affinity": "-0.0788 z-score"}
{"Strand": "GACGGTTTCGGTCTGGGGACGTGCTAG", "fitted relative affinity": "12.6 z-score"}
{"Strand": "TCAATTATTTATTGTAGCACTGTGCTA", "fitted relative affinity": "-0.0424 z-score"}
{"Strand": "TTAGGTTTCCTTCTCTTTTAGTGCTAG", "fitted relative affinity": "2.35 z-score"}
{"Strand": "TTAGGTCTCCTTTTGCTTTAGTGCTAG", "fitted relative affinity": "0.723 z-score"}
{"Strand": "GACCATCTCAGTCTCGAGACGTGCTAG", "fitted relative affinity": "1.47 z-score"}
{"Strand": "TTAGGACTGCTGTTCCTTTAGTGCTAG", "fitted relative affinity": "-0.536 z-score"}
{"Strand": "TTAGAACAGAGACTGGATTAGTGCTAG", "fitted relative affinity": "-0.317 z-score"}
{"Strand": "CCCTGTGTTACTTTCTACTTGTGCTAG", "fitted relative affinity": "0.972 z-score"}
{"Strand": "GACGGTTTCGGTATCGGCACGTGCTAG", "fitted relative affinity": "12.9 z-score"}
{"Strand": "TCATATATACCTGTATAACTGTGCTAG", "fitted relative affinity": "0.0736 z-score"}
{"Strand": "TTAGGTTTCCTTTCGCTTTAGTGCTAG", "fitted relative affinity": "3.14 z-score"}
{"Strand": "CTCTGGGGCTCCAGGGAGAAGTGCTAG", "fitted relative affinity": "-0.837 z-score"}
{"Strand": "CTAGGTCTCCTACTGCTTTAGTGCTAG", "fitted relative affinity": "-0.169 z-score"}
{"Strand": "TCATCTCTACTTGTGTCACTGTGCTAG", "fitted relative affinity": "0.949 z-score"}
{"Strand": "ATAGGTTTCCTACTGCTTTAGTGCTAG", "fitted relative affinity": "0.483 z-score"}
{"Strand": "GACGATCTCCGTCTCGAGACGTGCTAG", "fitted relative affinity": "-0.00742 z-score"}
{"Strand": "GATGGTTTCGGGTTTCGGGACGTGCTA", "fitted relative affinity": "10.1 z-score"}
{"data": "Sample 5", "target": "CEP164, C-terminal peptide (human)", "technique": "DHFR complementation, deep sequencing", "matrix": "yeast", "notes": "single substitutions, model-inferred values", "relative to": "wild type", "reading": "higher = weaker binding", "starting sequence": "PDZK1, PDZ domain 2 (human); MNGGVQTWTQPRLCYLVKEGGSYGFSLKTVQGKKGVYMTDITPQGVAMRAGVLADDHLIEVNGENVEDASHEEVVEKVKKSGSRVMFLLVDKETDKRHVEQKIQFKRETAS; partner HNRVKVYRF"}
{"Change": "K96A", "binding free energy change [kcal/mol]": -0.253}
{"Change": "S83G", "binding free energy change [kcal/mol]": 0.00742}
{"Change": "R49D", "binding free energy change [kcal/mol]": 0.747}
{"Change": "T9H", "binding free energy change [kcal/mol]": -0.038}
{"Change": "P11S", "binding free energy change [kcal/mol]": 0.132}
{"Change": "G63Q", "binding free energy change [kcal/mol]": 0.189}
{"Change": "V74W", "binding free energy change [kcal/mol]": 0.911}
{"Change": "L13D", "binding free energy change [kcal/mol]": 0.505}
{"Change": "P43A", "binding free energy change [kcal/mol]": 0.242}
{"Change": "D95Q", "binding free energy change [kcal/mol]": -0.244}
{"Change": "V66P", "binding free energy change [kcal/mol]": 0.701}
{"Change": "T7I", "binding free energy change [kcal/mol]": 0.0115}
{"Change": "D68F", "binding free energy change [kcal/mol]": 0.116}
{"Change": "N2R", "binding free energy change [kcal/mol]": -0.136}
{"Change": "F105C", "binding free energy change [kcal/mol]": -0.193}
{"Change": "E64D", "binding free energy change [kcal/mol]": 0.0528}
{"Change": "K28M", "binding free energy change [kcal/mol]": -0.563}
{"Change": "S22M", "binding free energy change [kcal/mol]": -0.587}
{"Change": "Q101I", "binding free energy change [kcal/mol]": 0.0967}
{"Change": "K102A", "binding free energy change [kcal/mol]": -0.0756}
{"Change": "P43E", "binding free energy change [kcal/mol]": 0.063}
{"Change": "K33T", "binding free energy change [kcal/mol]": 0.0005}
{"data": "Single results of other studies"}
{"Molecule": "PhoQ, residues 284 288 289 292 302 303 ALASRC", "target": "PhoP, residues 12 14 15 18 19 SGWQI (Escherichia coli, UniProt P23836)", "test": "Sort-seq, refers to: YFP reporter", "test system": "E. coli", "setting": "PhoQ-PhoP variant library, together with: 10 µM Mg2+", "how to read": "relative to: high Mg2+ state, higher = stronger signaling", "endpoint": "fold induction", "value": 1.08}
